Published values collected from several papers.
Each numbered part is a random draw from the data of one study; scales do not carry over between parts.

Set 1 — technique: protein-binding microarray; molecule type: double-stranded DNA, one strand shown; matrix: in vitro; concentration: 2200 nM top; setting: 60-bp whole probe; with: salmon DNA 0.4 mg/ml; baseline: random background probes; direction: higher = stronger binding; quantity: fitted relative affinity
Target: Interferon regulatory factor 7, full length, phosphomimetic (IRF7, Homo sapiens, UniProt Q92985, residues 1-503, S471D/S472D/S475D/S476D/S477D/S483D/S484D/S487D)
UniProt Q92985, sequence (whole entry, unmodified, looked up): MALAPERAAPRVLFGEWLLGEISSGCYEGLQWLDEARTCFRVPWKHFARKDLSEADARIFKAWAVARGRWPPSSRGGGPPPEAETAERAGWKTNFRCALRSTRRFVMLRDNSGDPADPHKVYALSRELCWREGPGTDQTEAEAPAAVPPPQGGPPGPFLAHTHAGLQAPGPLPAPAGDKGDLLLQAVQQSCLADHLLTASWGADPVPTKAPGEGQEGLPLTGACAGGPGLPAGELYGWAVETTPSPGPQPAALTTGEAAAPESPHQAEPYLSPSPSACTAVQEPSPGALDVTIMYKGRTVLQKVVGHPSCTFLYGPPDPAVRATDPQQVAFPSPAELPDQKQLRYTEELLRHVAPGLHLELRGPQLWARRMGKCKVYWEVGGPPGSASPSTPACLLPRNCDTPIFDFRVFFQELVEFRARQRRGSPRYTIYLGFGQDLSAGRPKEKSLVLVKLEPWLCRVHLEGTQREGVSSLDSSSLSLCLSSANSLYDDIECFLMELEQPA
GCCTAGCACTCATTTGTCATCTATAATACTGTGCTAGTCTTGATTCGCTTGACGCTGCTG: 1.49 z-score
GCCTAGCACGACGATTTCGGGTATCGATACGTGCTAGTCTTGATTCGCTTGACGCTGCTG: 3.14 z-score
GCCTAGCACTTAGGACTGGGGACTGGGTTGGTGCTAGTCTTGATTCGCTTGACGCTGCTG: -1.02 z-score
GCCTAGCACTTAGAGCTCAGTATCGATTAGTGCTAGGTCTTGATTCGCTTGACGCTGCTG: -0.354 z-score

Set 2 — technique: protein binding microarray; molecule type: double-stranded DNA, one strand shown; matrix: in vitro; concentration: not given; baseline: not given; direction: higher = stronger binding; quantity: E-score
Target: Histone acetyltransferase KAT6A, winged helix 2, GST fusion (KAT6A, Homo sapiens, UniProt Q92794, residues 85-181)
Setting: 8-mer, flanks averaged, mean of 2 arrays, mostly near background
Target sequence (chain): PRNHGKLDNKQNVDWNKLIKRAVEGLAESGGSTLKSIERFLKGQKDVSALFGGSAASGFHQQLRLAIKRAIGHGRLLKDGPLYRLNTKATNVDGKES
AGGAATGC: -0.0567
GGGGTACC: 0.0164
ACGCACCG: -0.0165
CCCAGATC: -0.0547

Other studies, line by line
FHL1 DNA-binding domain: Pre-rRNA-processing protein FHL1, DNA-binding domain (FHL1, Saccharomyces cerevisiae, UniProt P39521, residues 401-638)
UniProt P39521, sequence (401-638, looked up): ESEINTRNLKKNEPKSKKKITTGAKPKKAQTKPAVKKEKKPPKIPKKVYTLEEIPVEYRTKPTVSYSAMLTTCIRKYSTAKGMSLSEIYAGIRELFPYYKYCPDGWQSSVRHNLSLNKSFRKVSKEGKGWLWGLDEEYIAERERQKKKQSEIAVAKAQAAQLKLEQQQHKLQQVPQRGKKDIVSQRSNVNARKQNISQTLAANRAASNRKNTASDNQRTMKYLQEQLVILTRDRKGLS
GACGCA
relative binding free energy (FHL1 DNA-binding domain; SELEX-seq; double-stranded DNA, one strand shown, in vitro; not given, 6-bp core, flanks averaged; baseline: best-binding core, lower = stronger binding): 0 ddG/RT

PhoQ, residues 284 288 289 292 302 303 WSHMKI
fold induction (PhoP, residues 12 14 15 18 19 SQCLL (Escherichia coli, UniProt P23836); Sort-seq, measured: YFP reporter; E. coli; PhoQ-PhoP variant library, with: 10 µM Mg2+; baseline: high Mg2+ state, higher = stronger signaling): 12.4

GTCGCA
relative binding free energy (FHL1 DNA-binding domain; SELEX-seq; double-stranded DNA, one strand shown, in vitro; not given, 6-bp core, flanks averaged; baseline: best-binding core, lower = stronger binding): 0.294 ddG/RT

Repeated from above (set 2):
CCCAGATC: -0.0547
